Assay results collected from several papers.
Protocols differ between the studies behind these lines. Values joined by “and” are separate records of one study, mostly repeats; a detail may differ. Numbers after ± are the reported error.
Low molecular weight phosphotyrosine protein phosphatase isoform A: Low molecular weight phosphotyrosine protein phosphatase, isoform A (Mus musculus, UniProt Q9D358)
UniProt Q9D358, sequence (whole entry, looked up): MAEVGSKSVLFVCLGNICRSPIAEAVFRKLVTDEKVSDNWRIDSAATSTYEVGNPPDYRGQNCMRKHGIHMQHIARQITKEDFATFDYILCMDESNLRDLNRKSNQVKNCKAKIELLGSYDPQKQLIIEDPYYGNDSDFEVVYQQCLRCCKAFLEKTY
Urease subunit alpha: Urease subunit alpha (Sporosarcina pasteurii, UniProt P41020)
UniProt P41020, sequence (whole entry, looked up): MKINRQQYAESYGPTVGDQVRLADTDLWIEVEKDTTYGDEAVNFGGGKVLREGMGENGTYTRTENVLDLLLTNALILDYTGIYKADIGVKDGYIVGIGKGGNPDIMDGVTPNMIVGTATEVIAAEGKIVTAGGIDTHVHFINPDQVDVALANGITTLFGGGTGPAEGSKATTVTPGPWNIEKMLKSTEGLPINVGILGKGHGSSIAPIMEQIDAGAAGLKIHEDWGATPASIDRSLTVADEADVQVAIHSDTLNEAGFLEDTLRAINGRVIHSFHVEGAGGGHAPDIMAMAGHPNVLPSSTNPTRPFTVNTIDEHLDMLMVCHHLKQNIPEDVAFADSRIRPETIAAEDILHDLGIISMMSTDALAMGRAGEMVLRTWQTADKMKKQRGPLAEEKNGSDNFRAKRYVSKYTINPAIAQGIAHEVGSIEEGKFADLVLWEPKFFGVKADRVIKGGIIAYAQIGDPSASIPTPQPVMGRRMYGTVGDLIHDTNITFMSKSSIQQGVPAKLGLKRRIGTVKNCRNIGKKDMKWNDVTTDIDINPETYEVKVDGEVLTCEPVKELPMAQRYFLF
F12: Coagulation factor XII (F12, Homo sapiens, UniProt P00748)
UniProt P00748, sequence (whole entry, looked up): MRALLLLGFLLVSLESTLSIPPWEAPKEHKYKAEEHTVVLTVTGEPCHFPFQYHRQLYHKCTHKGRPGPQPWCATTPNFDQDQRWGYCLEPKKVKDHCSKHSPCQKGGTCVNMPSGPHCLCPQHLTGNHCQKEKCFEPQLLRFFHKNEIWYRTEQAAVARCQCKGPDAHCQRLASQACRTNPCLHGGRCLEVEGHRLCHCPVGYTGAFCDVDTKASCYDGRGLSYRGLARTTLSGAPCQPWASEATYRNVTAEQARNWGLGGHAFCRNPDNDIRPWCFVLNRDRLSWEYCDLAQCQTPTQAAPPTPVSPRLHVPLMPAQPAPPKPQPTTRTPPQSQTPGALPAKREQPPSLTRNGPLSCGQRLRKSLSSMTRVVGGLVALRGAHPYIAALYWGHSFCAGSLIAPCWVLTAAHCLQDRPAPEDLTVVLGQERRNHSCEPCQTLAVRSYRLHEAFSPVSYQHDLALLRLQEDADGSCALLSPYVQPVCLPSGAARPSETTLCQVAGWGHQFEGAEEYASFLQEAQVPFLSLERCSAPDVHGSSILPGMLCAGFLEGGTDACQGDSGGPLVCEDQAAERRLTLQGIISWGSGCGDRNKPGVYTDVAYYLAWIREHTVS
Serotonin N-acetyltransferase: Serotonin N-acetyltransferase (Ovis aries, UniProt Q29495)
UniProt Q29495, sequence (whole entry, looked up): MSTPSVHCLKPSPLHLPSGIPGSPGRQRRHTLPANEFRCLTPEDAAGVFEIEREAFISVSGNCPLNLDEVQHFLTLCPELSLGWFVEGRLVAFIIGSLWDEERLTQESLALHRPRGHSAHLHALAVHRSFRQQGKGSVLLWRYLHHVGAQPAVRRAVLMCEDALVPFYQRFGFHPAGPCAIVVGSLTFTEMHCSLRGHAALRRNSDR
PSMB7: Proteasome subunit beta type-7 (PSMB7, Homo sapiens, UniProt Q99436)
UniProt Q99436, sequence (whole entry, looked up): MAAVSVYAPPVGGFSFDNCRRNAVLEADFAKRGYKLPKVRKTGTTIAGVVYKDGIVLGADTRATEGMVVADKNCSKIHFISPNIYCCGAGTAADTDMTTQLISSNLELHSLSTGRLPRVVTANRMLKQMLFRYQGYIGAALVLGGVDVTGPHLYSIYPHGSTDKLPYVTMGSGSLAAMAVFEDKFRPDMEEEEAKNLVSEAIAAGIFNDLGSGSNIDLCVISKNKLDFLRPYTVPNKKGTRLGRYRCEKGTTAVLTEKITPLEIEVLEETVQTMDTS
PSMB1/PSMB8/PSMB3: PSMB1/PSMB8/PSMB3 (Homo sapiens, UniProt P20618+P28062+P49720)
UniProt P20618, sequence (whole entry, looked up): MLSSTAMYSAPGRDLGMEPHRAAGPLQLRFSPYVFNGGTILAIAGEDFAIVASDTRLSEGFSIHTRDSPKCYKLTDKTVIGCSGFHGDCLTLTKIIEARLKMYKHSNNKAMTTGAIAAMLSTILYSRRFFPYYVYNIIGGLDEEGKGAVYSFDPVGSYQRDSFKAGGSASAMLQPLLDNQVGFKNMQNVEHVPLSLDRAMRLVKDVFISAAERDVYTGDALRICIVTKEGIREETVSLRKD
UniProt P28062, sequence (whole entry, looked up): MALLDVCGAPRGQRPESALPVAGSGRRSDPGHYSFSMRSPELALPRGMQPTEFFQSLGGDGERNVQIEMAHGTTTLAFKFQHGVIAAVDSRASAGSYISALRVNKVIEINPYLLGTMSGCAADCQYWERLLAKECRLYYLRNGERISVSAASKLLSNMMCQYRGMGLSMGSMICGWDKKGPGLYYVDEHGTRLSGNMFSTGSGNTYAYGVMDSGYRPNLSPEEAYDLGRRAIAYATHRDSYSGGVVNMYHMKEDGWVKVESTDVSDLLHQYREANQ
UniProt P49720, sequence (whole entry, looked up): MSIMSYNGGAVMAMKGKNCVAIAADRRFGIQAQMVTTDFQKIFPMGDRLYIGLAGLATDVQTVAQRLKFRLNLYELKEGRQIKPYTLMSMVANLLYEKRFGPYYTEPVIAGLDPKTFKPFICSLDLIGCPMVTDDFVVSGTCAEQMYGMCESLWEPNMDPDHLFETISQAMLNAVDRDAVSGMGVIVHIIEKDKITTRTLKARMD
MAL12: Alpha-glucosidase MAL12 (MAL12, Saccharomyces cerevisiae S288c, UniProt P53341)
UniProt P53341, sequence (whole entry, looked up): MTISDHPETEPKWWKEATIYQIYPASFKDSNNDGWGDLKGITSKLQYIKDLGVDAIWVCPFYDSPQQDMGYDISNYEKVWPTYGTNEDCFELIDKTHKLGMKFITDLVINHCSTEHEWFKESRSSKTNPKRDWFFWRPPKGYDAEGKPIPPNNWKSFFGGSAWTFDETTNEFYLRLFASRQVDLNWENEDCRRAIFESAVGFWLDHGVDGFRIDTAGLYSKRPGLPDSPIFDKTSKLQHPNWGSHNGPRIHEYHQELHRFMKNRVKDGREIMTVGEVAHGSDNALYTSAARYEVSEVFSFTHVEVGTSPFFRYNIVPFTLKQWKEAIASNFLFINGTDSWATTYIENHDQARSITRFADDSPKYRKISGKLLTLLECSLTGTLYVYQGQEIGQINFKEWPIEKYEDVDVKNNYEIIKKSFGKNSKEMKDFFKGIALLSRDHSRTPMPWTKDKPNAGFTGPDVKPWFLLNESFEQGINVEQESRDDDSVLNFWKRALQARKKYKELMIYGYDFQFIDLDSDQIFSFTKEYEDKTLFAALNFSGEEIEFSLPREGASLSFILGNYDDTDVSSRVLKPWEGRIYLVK
UniProt P56817, sequence (whole entry, looked up): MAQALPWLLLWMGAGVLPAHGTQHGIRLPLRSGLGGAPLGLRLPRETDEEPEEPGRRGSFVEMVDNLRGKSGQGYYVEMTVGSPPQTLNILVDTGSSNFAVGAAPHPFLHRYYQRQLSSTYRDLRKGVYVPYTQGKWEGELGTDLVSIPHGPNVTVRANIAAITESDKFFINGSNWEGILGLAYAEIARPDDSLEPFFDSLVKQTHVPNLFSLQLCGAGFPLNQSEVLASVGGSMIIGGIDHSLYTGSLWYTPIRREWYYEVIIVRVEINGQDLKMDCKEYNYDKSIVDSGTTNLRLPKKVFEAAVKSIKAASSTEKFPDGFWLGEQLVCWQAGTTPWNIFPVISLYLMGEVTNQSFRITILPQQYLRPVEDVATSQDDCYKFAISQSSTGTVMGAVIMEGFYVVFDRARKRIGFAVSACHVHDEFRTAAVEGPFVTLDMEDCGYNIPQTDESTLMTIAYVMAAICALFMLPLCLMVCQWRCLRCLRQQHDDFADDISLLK
UniProt Q9P275, sequence (whole entry, looked up): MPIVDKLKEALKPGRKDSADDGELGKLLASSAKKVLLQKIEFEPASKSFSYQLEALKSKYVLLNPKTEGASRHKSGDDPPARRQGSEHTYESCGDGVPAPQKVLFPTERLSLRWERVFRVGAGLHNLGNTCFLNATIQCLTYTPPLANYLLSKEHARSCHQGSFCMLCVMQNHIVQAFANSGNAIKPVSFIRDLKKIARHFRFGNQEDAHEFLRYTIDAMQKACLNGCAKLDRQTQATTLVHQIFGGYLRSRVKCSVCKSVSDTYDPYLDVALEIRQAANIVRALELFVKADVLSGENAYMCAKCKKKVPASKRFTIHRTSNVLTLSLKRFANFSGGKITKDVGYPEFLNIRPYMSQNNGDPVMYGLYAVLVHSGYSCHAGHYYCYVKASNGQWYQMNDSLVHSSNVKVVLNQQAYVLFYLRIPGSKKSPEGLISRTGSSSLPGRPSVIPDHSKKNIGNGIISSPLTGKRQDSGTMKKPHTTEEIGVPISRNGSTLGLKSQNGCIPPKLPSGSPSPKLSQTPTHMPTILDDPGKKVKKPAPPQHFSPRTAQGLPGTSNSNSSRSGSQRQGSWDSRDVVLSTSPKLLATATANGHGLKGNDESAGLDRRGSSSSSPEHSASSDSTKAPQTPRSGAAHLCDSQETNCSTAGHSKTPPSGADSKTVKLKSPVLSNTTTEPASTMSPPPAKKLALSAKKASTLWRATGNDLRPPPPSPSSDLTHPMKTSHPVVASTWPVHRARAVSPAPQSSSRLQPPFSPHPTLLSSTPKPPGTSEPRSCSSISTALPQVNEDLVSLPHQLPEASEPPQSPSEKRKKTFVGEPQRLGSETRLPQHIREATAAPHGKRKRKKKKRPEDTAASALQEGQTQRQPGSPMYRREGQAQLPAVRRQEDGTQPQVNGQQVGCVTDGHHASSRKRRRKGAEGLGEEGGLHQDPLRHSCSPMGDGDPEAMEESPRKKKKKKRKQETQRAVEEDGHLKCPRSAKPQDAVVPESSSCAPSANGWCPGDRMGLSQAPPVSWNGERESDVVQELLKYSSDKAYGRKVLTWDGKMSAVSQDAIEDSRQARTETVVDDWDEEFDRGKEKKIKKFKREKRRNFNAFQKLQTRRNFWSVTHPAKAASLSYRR

`c1ccc(-c2cc(N3CCCCC3)c3ccccc3n2)cc1` gave an IC50 of 9.25 µM (Low molecular weight phosphotyrosine protein phosphatase isoform A; enzyme activity, inhibitor; added: OMFP substrate).
`CCS(=O)(=O)c1ncc(Cl)c(C(=O)Oc2cccc(C)c2)n1` gave an IC50 of 1 µM (G-protein coupled bile acid receptor 1 (GPBAR1, Homo sapiens, UniProt Q8TDU6); antagonist).
The IC50 of `O=c1nc(SCc2cc(F)cc(C(F)(F)F)c2)nc(SCc2ccc3sccc3c2)[nH]1` is reported as 18.1 µM (DNA topoisomerase 2-alpha (TOP2A, Homo sapiens, UniProt P11388); ATPase activity, ATP-competitive inhibitor; added: ATP 0.25 mM).
The IC50 of `N#Cc1nc2c(nc1C#N)-c1ccccc1/C2=N\OCc1ccccc1` is reported as 2.26 µM (Ubiquitin carboxyl-terminal hydrolase 36 (USP36, Homo sapiens, UniProt Q9P275); deubiquitinase activity, inhibitor, MALDI-TOF DUB; 30 °C, 35 min pre-incubation).
The IC50 of `Cc1ccc(NC(=S)N/N=C/C=C/c2ccc(F)cc2)cc1` is reported as 10.2 ± 0.4 µM (Urease subunit alpha; enzyme activity, indophenol method).
`Clc1cccc(-c2cc(NCCCN3CCCCC3)c3ccccc3n2)c1` gave an IC50 of 1.12 µM (Low molecular weight phosphotyrosine protein phosphatase isoform A; enzyme activity, inhibitor; added: OMFP substrate).
`CC[C@@H]1[C@H](F)C(=O)N[C@@H]1COc1nccc2cc(C(N)=O)c(OC)cc12` gave an IC50 of over 5 µM (Cyclin-dependent kinase 14 (CDK14, Homo sapiens, UniProt O94921); ATP-site binding, ActivX KiNativ profiling; THP-1 cell lysate; Lys1 PFTAIRE1 probe site).
With `Fc1ccc(/C=C/C=N/NC(=S)NC2CCCCC2)cc1` the IC50 was 7.5 ± 0.1 µM (Urease subunit alpha; enzyme activity, indophenol method).
The IC50 of `COc1ccc(F)c(CNC(=O)c2cn(Cc3ccc(Cn4ccccc4=O)cc3)nc2CN(C)C)c1F` is reported as over 40 µM (F12).
`CC(C)NC(=O)COc1cccc(-c2nc(Nc3ccc4[nH]ncc4c3)c3ccccc3n2)c1` has an IC50 of over 10 µM (UDP-glucuronosyltransferase 1A4 (UGT1A4, Homo sapiens, UniProt P22310); enzyme activity, inhibitor; recombinant UGT microsomes; added: diclofenac).
With `COc1nc(N)nc(N)c1OCCCOc1ccccc1CCC(=O)O` the IC50 was over 5 µM (uncharacterized protein (Mycobacteroides abscessus, UniProt B1MD46); enzyme activity, inhibitor, NADPH fluorescence; added: 1 nM enzyme).
The IC50 of `CC(C)Cn1c(=O)n(C)c(=O)c2nc(SCCCO)c(Cc3cccc4ccccc34)nc21` is reported as 0.858 µM (Monocarboxylate transporter 1 (Slc16a1, Mus musculus, UniProt P53986); lactate transport; MCF7 expressing Slc16a1; 10 min, added: [14C]lactate).
`Cn1cc2c(C(=O)O)ccc(NS(=O)(=O)c3ccc(OCC4CCC4)c(Cl)c3)c2n1` gave an IC50 of over 100 µM (17-beta-hydroxysteroid dehydrogenase type 2 (HSD17B2, Homo sapiens, UniProt P37059); enzyme activity, inhibitor; added: β-estradiol).
For `O=C1NC(=O)/C(=C2/C(=O)N(Cc3ccc(F)cc3)c3ccccc32)N1`, the IC50 was over 60 µM (Serotonin N-acetyltransferase; inhibitor, stopped-flow UV; added: serotonin 100 µM, acetyl-CoA 100 µM).
`Cc1cccc(C)c1NC(=S)N/N=C/C=C/c1ccc(F)cc1` gave an IC50 of 11.9 ± 0.6 µM (Urease subunit alpha; enzyme activity, indophenol method).
The IC50 of `COc1cccc(-c2cc(NCCCN3CCCCC3)c3ccccc3n2)c1` is reported as 2.21 µM (Low molecular weight phosphotyrosine protein phosphatase isoform A; enzyme activity, inhibitor; added: OMFP substrate).
`CC(=O)c1ccc2cc(S(=O)(=O)Nc3ccc(Br)cc3)ccc2c1` has an IC50 of 3.02 µM (Signal transducer and activator of transcription 3 (STAT3, Homo sapiens, UniProt P40763); tyrosine phosphorylation, inhibitor, ELISA, measured: phospho-Tyr705).
`O=C(O)c1ccc(CN2C(=O)/C(=C3/C(=O)N(Cc4ccc(F)cc4)c4ccccc43)SC2=S)cc1` has an IC50 of 11 ± 11 µM (Serotonin N-acetyltransferase; inhibitor, stopped-flow UV; added: serotonin 100 µM, acetyl-CoA 100 µM).
With `COc1ccc(C[C@H](NC(=O)[C@H](C)NC(=O)CN2CCOCC2)C(=O)N[C@@H](C[C@@H]2CCC[C@H]3CCCC[C@H]32)C(=O)[C@@]2(C)CO2)cc1` the IC50 was over 10 µM (PSMB7; enzyme activity, cell-based).
With `Cc1ccc(S(=O)(=O)Nc2ccc(C)cc2NS(=O)(=O)c2cccc(C(F)(F)F)c2)cc1` the IC50 was 12.9 µM (Protein lin-28 homolog B (LIN28B, Homo sapiens, UniProt Q6ZN17); pre-let-7d binding to Lin28B, inhibitor).
`COCc1nn(Cc2ccc(Cn3ccccc3=O)cc2)cc1C(=O)NCc1c(F)ccc(OC)c1F` has an IC50 of over 40 µM (F12).
`c1ccc(-c2cc(OCCCN3CCCCC3)c3ccccc3n2)cc1` gave an IC50 of 11.5 µM (Low molecular weight phosphotyrosine protein phosphatase isoform A; enzyme activity, inhibitor; added: OMFP substrate).
With `NCCOCC(=O)N1CCC[C@H](C(=O)NCc2nc(-c3ccc(C(F)(F)F)cc3)cs2)C1` the IC50 was over 30 µM (PSMB1/PSMB8/PSMB3).
With `CCOCC(=O)N1CCC[C@H](C(=O)NCc2nc(-c3ccc(C#N)cc3)cs2)C1` the IC50 was over 30 µM (PSMB1/PSMB8/PSMB3).
`N=C(N)c1ccc(-c2ccc(-c3ccc(C(=N)N)cc3)o2)cc1` gave an IC50 of ~30 µM and 29.8 µM (F12; inhibitor; pH 7.4).
`O=C1/C(=C2/C(=O)N(Cc3ccc(F)cc3)c3ccccc32)SC(=S)N1CCCCCCO` gave an IC50 of over 60 µM (Serotonin N-acetyltransferase; inhibitor, stopped-flow UV; added: serotonin 100 µM, acetyl-CoA 100 µM).
`CN1CCN(c2ccc(Nc3ncc4cc(C#N)c(=O)n(C5CCCC5)c4n3)cc2)CC1` has an IC50 of over 10 µM (Serine/threonine-protein kinase pim-2 (PIM2, Homo sapiens, UniProt Q9P1W9)).
`CC[C@H](C)[C@H](NC(=O)[C@H](Cc1ccccc1)NC(=O)[C@H](Cc1ccc(O)cc1)NC(=O)[C@@H]1CCCN1C(=O)[C@@H](N)Cc1ccc(O)cc1)C(=O)N1CCC[C@H]1C(=O)N[C@@H](CC(C)C)C(=O)NCC(=O)NCC(=O)NCC(=O)NCC(=O)NCC(=O)N[C@@H](CCC(=O)O)C(=O)N[C@H](C(=O)N[C@@H](CC(N)=O)C(=O)N[C@@H](CC(C)C)[C@@H](O)CC(=O)N[C@H](C(=O)N[C@@H](C)C(=O)N[C@@H](CCC(=O)O)C(=O)N1CCC[C@@H]1C(=O)N[C@@H](CCCCNC(=O)CCC(=O)O[C@H]1CC[C@@]2(C)C(=CC[C@H]3[C@@H]4CC[C@H]([C@H](C)CCCC(C)C)[C@@]4(C)CC[C@@H]32)C1)C(N)=O)C(C)C)C(C)C` gave an IC50 of 3.2e-05 µM (Beta-secretase 1 (BACE1, Homo sapiens, UniProt P56817); Aβ40 lowering, AlphaLISA, measured: Aβ40; HEK293 expressing wild-type human APP695).
`Cc1ccccc1Nc1c(-c2ccco2)nc2c(C(F)F)cccn12` gave an IC50 of about 10 µM (Excitatory amino acid transporter 3 (SLC1A1, Homo sapiens, UniProt P43005); glutamate uptake, impedance; HEK293, doxycycline-induced; AUC over 3 h, added: 1 mM L-glutamate).
With `O=C(O)CCCCCCN1C(=O)/C(=C2/C(=O)N(Cc3ccc(F)cc3)c3ccccc32)SC1=S` the IC50 was 64 µM (Serotonin N-acetyltransferase; inhibitor, stopped-flow UV; added: serotonin 100 µM, acetyl-CoA 100 µM).
With `CC[C@H](C)[C@H](NC(=O)[C@H](CS)NC(=O)[C@H](CCC(=O)O)NC(=O)[C@H](C)NC(=O)[C@@H](NC(=O)[C@@H](N)CCCNC(=N)N)[C@@H](C)CC)C(=O)N[C@@H](CC(C)C)C(=O)NCC(=O)N[C@@H](CCSC)C(=O)O` the IC50 was 16.9 µM (HLA class I histocompatibility antigen, B alpha chain (Homo sapiens, UniProt P01889); binding, competitor, radioligand competition; two days, room temperature, HLA-B*07:02).
For `Cc1nc2ccc(Cl)cc2c(=O)n1NC(=O)CCl`, the IC50 was 19.9 ± 1.41 µM (MAL12; enzyme activity, inhibitor; Saccharomyces cerevisiae; added: 4-nitrophenyl glucopyranoside).
`COCc1nn(Cc2ccc(Cn3ccccc3=O)cc2)cc1C(=O)NCc1c(Cl)ccc(OC)c1F` has an IC50 of over 40 µM (F12).
For `Cc1nc2ccc(Cl)cc2c(=O)n1NC1=NC(=O)CS1`, the IC50 was 53.4 ± 2.12 µM (MAL12; enzyme activity, inhibitor; Saccharomyces cerevisiae; added: 4-nitrophenyl glucopyranoside).
For `c1ccc(CN(Cc2ccccn2)C(c2ccccn2)c2ccccn2)nc1`, the IC50 was over 1000 µM (Proteasome subunit beta type-7, in 20S proteasome (PSMB7, Homo sapiens, UniProt Q99436); trypsin-like activity, inhibitor, purified 20S proteasome; pH 7.4, added: 20 µM Bz-VGR-AMC).
With `O=C(Nc1cccc2c(=O)cc(-c3nnn[nH]3)oc12)c1ccc(OCCCCc2ccccc2)cc1` the IC50 was 0.53 µM (LRRC8A/LRRC8C (Homo sapiens, UniProt Q8IWT6+Q8TDW0, E6A); ion current, inhibitor, whole-cell patch clamp; HCT116 LRRC8-/- transfected; at +100 mV).
`COc1ccc(-c2cc(NCCCN3CCCCC3)c3ccccc3n2)cc1` has an IC50 of 1.68 µM (Low molecular weight phosphotyrosine protein phosphatase isoform A; enzyme activity, inhibitor; added: OMFP substrate).
`O=C(O)CCCCCN1C(=O)S/C(=C2\C(=O)N(Cc3ccc(F)cc3)c3ccccc32)C1=O` has an IC50 of 43 ± 37 µM (Serotonin N-acetyltransferase; inhibitor, stopped-flow UV; added: serotonin 100 µM, acetyl-CoA 100 µM).
The IC50 of `CCc1ccc(/C=N/n2c(C)nc3ccc(C)cc3c2=O)s1` is reported as 832 ± 22.7 µM (Pancreatic alpha-amylase (Homo sapiens, UniProt P04746); enzyme activity, inhibitor).
The IC50 of `C=CC(=O)Nc1cc(Nc2nccc(Nc3cc(Cl)c(F)cc3C(C)(C)O)n2)c(OC)cc1N1CC[C@@H](N(C)C)C1` is reported as 0.166 µM (Epidermal growth factor receptor (EGFR, Homo sapiens, UniProt P00533); EGFR phosphorylation, HTRF; H2073^WT cells; 2 h, added: EGF).
`C[C@@H]1CN(C(=O)c2ccc(NC(=O)c3cc(O[C@H](C)c4c(Cl)ccc(F)c4Cl)c(N)nn3)cc2)C[C@H](C)N1` gave an IC50 of 0.0031 µM (ALK tyrosine kinase receptor (ALK, Homo sapiens, UniProt Q9UM73, R1275Q); enzyme activity, inhibitor; added: 1 mM ATP).
For `Cc1ncc(C(=O)N[C@@H](CC2CCC(C)CC2)C(=O)N[C@@H](CC(C)C)C(=O)N[C@H](/C=C/S(C)(=O)=O)Cc2ccc(CN)cc2)s1` (stereo partly drawn), the IC50 was 0.383 µM (PSMB7; inhibitor, biochemical).
`COc1ccnc(CNC(=O)c2cnn(Cc3ccc(Cn4ccccc4=O)cc3)c2)c1F` gave an IC50 of over 40 µM (F12).
`Clc1ccccc1-c1cc(NCCCN2CCCCC2)c2ccccc2n1` gave an IC50 of 11.6 µM (Low molecular weight phosphotyrosine protein phosphatase isoform A; enzyme activity, inhibitor; added: OMFP substrate).
With `COc1cc(NCC(=O)Nn2c(C)nc3ccc(Cl)cc3c2=O)cc(OC)c1OC` the IC50 was 21 ± 1.27 µM (MAL12; enzyme activity, inhibitor; Saccharomyces cerevisiae; added: 4-nitrophenyl glucopyranoside).

For quick reference, copied from above:
`CC[C@@H]1[C@H](F)C(=O)N[C@@H]1COc1nccc2cc(C(N)=O)c(OC)cc12` gave an IC50 of over 5 µM (Cyclin-dependent kinase 14 (CDK14, Homo sapiens, UniProt O94921); ATP-site binding, ActivX KiNativ profiling; THP-1 cell lysate; Lys1 PFTAIRE1 probe site).
`CCS(=O)(=O)c1ncc(Cl)c(C(=O)Oc2cccc(C)c2)n1` gave an IC50 of 1 µM (G-protein coupled bile acid receptor 1 (GPBAR1, Homo sapiens, UniProt Q8TDU6); antagonist).
`COCc1nn(Cc2ccc(Cn3ccccc3=O)cc2)cc1C(=O)NCc1c(F)ccc(OC)c1F` has an IC50 of over 40 µM (F12).
With `COc1cc(NCC(=O)Nn2c(C)nc3ccc(Cl)cc3c2=O)cc(OC)c1OC` the IC50 was 21 ± 1.27 µM (MAL12; enzyme activity, inhibitor; Saccharomyces cerevisiae; added: 4-nitrophenyl glucopyranoside).
`N=C(N)c1ccc(-c2ccc(-c3ccc(C(=N)N)cc3)o2)cc1` gave an IC50 of ~30 µM and 29.8 µM (F12; inhibitor; pH 7.4).
`C[C@@H]1CN(C(=O)c2ccc(NC(=O)c3cc(O[C@H](C)c4c(Cl)ccc(F)c4Cl)c(N)nn3)cc2)C[C@H](C)N1` gave an IC50 of 0.0031 µM (ALK tyrosine kinase receptor (ALK, Homo sapiens, UniProt Q9UM73, R1275Q); enzyme activity, inhibitor; added: 1 mM ATP).
